Experimental data of several laboratories.
Every numbered part comes from another study and shows a few of its results, in no order.

Study 1 — technique: RNA Bind-n-Seq; form: RNA; sample: in vitro; tested at: 365 nM; relative to: no-protein control; direction: higher = stronger binding
Target: RNA binding protein fox-1 homolog 2, RRM domain, GST-SBP tag (RBFOX2, Homo sapiens, UniProt O43251-10, residues 100-194)
Notes: natural RNA segment, single round, ends assumed
Oligonucleotide	RBNS enrichment (R)
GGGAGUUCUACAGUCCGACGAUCCGUUCUAGCUGUAUGCGUUCUGUAGUCUUUUCUUAGGUGGGUAACAUUUUCAAUAACGCGCGCACAGCACACAGGGGUGCCCUGAGCCGAAGGAGCAAAAAAAGCCACCGUGGAAUUCUCGGGUGCCAA	0.541
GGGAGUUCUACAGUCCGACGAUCAUCAAUGUUGUUCGGUCAGCCCUUCCCUAAUUACACCUAUCCCCUACACAUACAUGCACAUAGACACACACAUGAACACACUGAAGAUAUUUCCUUCAGGUGUGUGUAAAUGGAAUUCUCGGGUGCCAA	0.544
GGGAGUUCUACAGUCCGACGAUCACACCCUCCCCUCUUGUCUACUCACUCCUAGGGCGUUUCUUUGCCGAUUUUUGAAUGUGAUUUUAAAGAGUGGAAAAUGAGACUAUGCGUUUUUAUAAAAAAUGGUGCCUUGGAAUUCUCGGGUGCCAA	0.892
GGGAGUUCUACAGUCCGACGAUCCUCUCUGUAAUUCUGCCCCACUCAUUUGUUUACCCUGGGUUUUAUACAGUUCUCUUCCUUCUCCCCUCCCACCUUUCCCUGGCUUUUUGCCUCCAUUCCAUGAGGCAUACUGGAAUUCUCGGGUGCCAA	1.09
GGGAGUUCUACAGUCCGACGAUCUAUUGGGGAAUGGAAACUUUGGGGGAGUGACUUUUUAAAGAGACACUUAUAAUUUCUACUACUGCACUACUGUCCAUUGUGGGAUGAUUAAACAUGGUAUUUAACUGUGCUGGAAUUCUCGGGUGCCAA	0.77

Study 2 — technique: protein binding microarray; form: double-stranded DNA, one strand shown; sample: in vitro; tested at: not given; relative to: not given; direction: higher = stronger binding
Target: Histone acetyltransferase KAT6A, winged helix 1, GST fusion (KAT6A, Homo sapiens, UniProt Q92794, residues 1-85)
Notes: 8-mer, flanks averaged, mean of 2 arrays, mostly near background
Target sequence (chain): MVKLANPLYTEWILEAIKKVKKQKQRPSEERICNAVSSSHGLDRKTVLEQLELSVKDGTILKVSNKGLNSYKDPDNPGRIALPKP
Oligonucleotide	E-score
AGCCTTGA	-0.156
AAGTATAG	-0.0334
GACGCCGA	0.25
ATGCTGGC	-0.144
CATCCGTC	0.185

Study 3 — technique: protein-binding microarray; form: double-stranded DNA, one strand shown; sample: in vitro; tested at: 0.8 µM; notes: whole 60-bp probe, no competitor; direction: higher = stronger binding
Target: Centromere-binding protein 1, full length, N-terminal tag (CBF1, Saccharomyces cerevisiae, UniProt P17106, residues 1-351)
UniProt P17106, sequence (whole entry, looked up): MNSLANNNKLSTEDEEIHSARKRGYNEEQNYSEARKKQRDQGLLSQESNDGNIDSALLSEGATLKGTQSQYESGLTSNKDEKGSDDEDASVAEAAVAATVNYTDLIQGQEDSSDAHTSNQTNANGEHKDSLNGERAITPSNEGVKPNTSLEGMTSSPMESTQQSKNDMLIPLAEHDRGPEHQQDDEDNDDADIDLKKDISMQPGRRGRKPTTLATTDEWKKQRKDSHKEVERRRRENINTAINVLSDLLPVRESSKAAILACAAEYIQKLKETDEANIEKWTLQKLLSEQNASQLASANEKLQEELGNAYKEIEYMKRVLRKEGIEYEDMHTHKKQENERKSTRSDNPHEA
Oligonucleotide	fluorescence intensity
GAAGACTATTTTGACCATGTGCTCAACTAGAAGTAGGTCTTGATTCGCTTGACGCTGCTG	1780 a.u.
TGTACGAAGCTATGTACCGTGCCTATAGTAGTTAGGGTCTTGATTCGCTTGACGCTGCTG	528 a.u.
CTACAACTTCCATAGTACGTGCCTGCTACTGTGTTCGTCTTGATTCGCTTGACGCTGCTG	548 a.u.
CTAAGACCGAATGAACATGTGCCTTTGCATTACTTCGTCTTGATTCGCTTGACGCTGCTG	811 a.u.
CTACAAGAAATGAGAAACGTGGGAGATGTTCAATTCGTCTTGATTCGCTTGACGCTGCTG	554 a.u.
GAATTGTTGTACCATCACCATGTGCTATTCCATTAGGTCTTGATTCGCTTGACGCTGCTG	744 a.u.
CTAAATAAGGTATGAAACATGACAGATGGTTAATTCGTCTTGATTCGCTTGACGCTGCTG	531 a.u.
GAATGGGCATCATAGCATGTGGTACTAAACCCTTAGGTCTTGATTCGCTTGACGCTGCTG	650 a.u.
CCTAACTACTATATCATCGTGTGATAGCTTCGTACAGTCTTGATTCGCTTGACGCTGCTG	556 a.u.

Mixed results
Substance	target	test	system	conditions	how to read	measurement	result
PhoQ, residues 284 288 289 292 302 303 TYGVAM	PhoP, residues 12 14 15 18 19 TPLRH (Escherichia coli, UniProt P23836)	Sort-seq, measured: YFP reporter	E. coli	PhoQ-PhoP variant library, added: 10 µM Mg2+	relative to: high Mg2+ state, higher = stronger signaling	fold induction	2.72
